Experimental data of several laboratories.
Every numbered part comes from another study and shows a few of its results, in no order. Changes are numbered by the printed parent chain.

Sample 1
Target: CCNB2, cyclin fold, Cln2 fusion (human)
Technique: yeast growth competition, sequencing
Matrix: yeast
Notes: weak parent motif
Relative to: not given
Reading: higher = stronger binding
Parent: RBL1 docking peptide (human); GSAKRRLFGEDPP
Change | normalised enrichment score
GSAKRRLFGEDRP [P12R] | 0.184
GDAKRRLFGEDPP [S2D] | -0.232
GSAKRRKFGEDPP [L7K] | 0.447
GSAKRRLFGVDPP [E10V] | -0.473
GSTKRRLFGEDPP [A3T] | 0.893
GSCKRRLFGEDPP [A3C] | 0.573
GSAKRRLFGEDVP [P12V] | 0.0372
GKAKRRLFGEDPP [S2K] | 0.119

Sample 2
Target: Ras GTPase-activating protein-binding protein 1, full length (G3BP1, Homo sapiens, UniProt Q13283)
UniProt Q13283, sequence (whole entry, looked up): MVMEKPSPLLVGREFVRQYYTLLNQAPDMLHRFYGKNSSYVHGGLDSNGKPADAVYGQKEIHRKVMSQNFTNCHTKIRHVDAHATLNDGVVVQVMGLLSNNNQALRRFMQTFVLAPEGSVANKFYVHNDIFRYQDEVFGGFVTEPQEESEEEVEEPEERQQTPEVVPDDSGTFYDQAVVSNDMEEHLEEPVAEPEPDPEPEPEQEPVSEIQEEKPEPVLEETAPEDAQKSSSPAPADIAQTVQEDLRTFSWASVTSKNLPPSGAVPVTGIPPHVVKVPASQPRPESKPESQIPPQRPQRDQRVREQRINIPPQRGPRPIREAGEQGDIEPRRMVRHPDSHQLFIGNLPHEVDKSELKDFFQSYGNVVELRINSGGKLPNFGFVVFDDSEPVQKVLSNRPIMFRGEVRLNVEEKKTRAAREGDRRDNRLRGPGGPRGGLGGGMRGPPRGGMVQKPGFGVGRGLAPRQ
Technique: RNA Bind-n-Seq
Form: RNA
Matrix: in vitro
Concentration: 200 nM
Notes: whole 134-nt RNA, ends assumed
Added: 150 mM KCl
Relative to: input library
Reading: higher = stronger binding
Oligonucleotide | log2 enrichment
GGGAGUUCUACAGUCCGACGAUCUCCUGUGCUACACAUCGUAUGUACCGAAUCAAAGUGUGUGUGUAAAGUGUGUGUGUAAAAAAGUAUUAUGUUACGCCGUUCGGAUCUGCAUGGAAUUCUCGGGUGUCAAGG | -0.266
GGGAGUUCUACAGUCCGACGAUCAGUCCUGUGCUACACAUCGUAUGUACCGAAUCGGGGAAAAAAAGGGGUGGGGUGGGGAAAGUAUUAUGUUACGCCGUUCGGAUCUGCACUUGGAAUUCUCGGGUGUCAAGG | 0.289
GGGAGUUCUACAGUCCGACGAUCUCAAGUCCUGUGCUACACAUCGUAUGUACCGAAUCGGGAAAGGAAAGGAAAGGGAAAGUAUUAUGUUACGCCGUUCGGAUCUGCACUUCCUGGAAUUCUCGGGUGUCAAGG | -0.891
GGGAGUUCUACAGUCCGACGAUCUCAAGUCCUGUGCUACACAUCGUAUGUACCGAAUCGGUUUGGAAAGGAAAAAGGAAAGUAUUAUGUUACGCCGUUCGGAUCUGCACUUCCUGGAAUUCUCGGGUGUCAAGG | -0.669
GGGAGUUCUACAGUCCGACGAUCAAGUCCUGUGCUACACAUCGUAUGUACCGAAUCGGGGAAAGGGGAAAGGGAAAGGGGAAAGUAUUAUGUUACGCCGUUCGGAUCUGCACUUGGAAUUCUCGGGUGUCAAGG | 0.209
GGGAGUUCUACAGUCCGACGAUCGUCCUGUGCUACACAUCGUAUGUACCGAAUCGGGGUUUGGGGUUUUUUUGGGGAGGGGAAAGUAUUAUGUUACGCCGUUCGGAUCUGCACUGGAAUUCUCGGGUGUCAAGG | 0.678
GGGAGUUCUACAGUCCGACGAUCCCUGUGCUACACAUCGUAUGUACCGAAUCGGAAAAAAGGGGAAAAAAGGGGAAAAAAGGGGAAAGUAUUAUGUUACGCCGUUCGGAUCUGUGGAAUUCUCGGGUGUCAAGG | -0.487
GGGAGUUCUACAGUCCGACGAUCCCUCAAGUCCUGUGCUACACAUCGUAUGUACCGAAUCGGAAAAAGGUGGUGGAAAGUAUUAUGUUACGCCGUUCGGAUCUGCACUUCCAGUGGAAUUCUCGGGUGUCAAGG | -0.0675
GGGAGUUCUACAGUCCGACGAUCUCCUGUGCUACACAUCGUAUGUACCGAAUCGGGGUUUGGGGAAAAAAAGGGGAAAGGGGAAAGUAUUAUGUUACGCCGUUCGGAUCUGCAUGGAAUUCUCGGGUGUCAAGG | 0.857

Sample 3
Target: RNA binding protein fox-1 homolog 2, RRM domain, GST-SBP tag (RBFOX2, Homo sapiens, UniProt O43251-10, residues 100-194)
Technique: RNA Bind-n-Seq
Form: RNA
Matrix: in vitro
Concentration: 365 nM
Notes: natural RNA segment, single round, ends assumed
Relative to: no-protein control
Reading: higher = stronger binding
Target sequence (chain): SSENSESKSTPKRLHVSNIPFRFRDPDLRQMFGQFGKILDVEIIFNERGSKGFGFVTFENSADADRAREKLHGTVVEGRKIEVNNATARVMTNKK
Oligonucleotide | RBNS enrichment (R)
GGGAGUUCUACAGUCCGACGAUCCGGGGACCCACUCUGCCCAGCCGGAGGGACGCGGAGGAGGAAGAGGGUAGACAGGGGCGACCUGUGAUUGUUGUUAUUGAUGUUGUUGUUGAUGGCAAAAAAAAAAAAGCUGGAAUUCUCGGGUGCCAA | 0.811
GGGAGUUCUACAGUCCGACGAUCAAUGCCACCGUUUCCUCUAAGACUGGCCAUUAAUGUUUCGUCGGCGGAAGUCGCUCUCCUGGGAGGCAAUGAGCAUUGCCGUAUAGGUUCCUGUUUAUUAGAGAGUAUGCUGGAAUUCUCGGGUGCCAA | 0.408
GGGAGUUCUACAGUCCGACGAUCCCUGCACUUCCUUUGCUUCCUCCUGUUCACCCUGGUGGUGUACGGAUGAGGCGGGGAGGUGGGACCCCCAAACAUAUAUCAGCCCAACAGCCCUAAGUCUCCUUCUUUAUUGGAAUUCUCGGGUGCCAA | 0.264
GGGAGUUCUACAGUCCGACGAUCUUUAAAUAAUUAUUACAUUAUUCUAACUAUAGUCAUAUUAUUUUGGAUUUAAAUAAAUUUCUAUCCUAUAACAUUUUUUUGGAGCUUUUUGUUUUGUCUCUUAAGGUUGUUGGAAUUCUCGGGUGCCAA | 0.565
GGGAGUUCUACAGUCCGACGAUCUUUGUUAAGUUAUCAGCCACGUCUGCAUCACAGACUACAGGUACUACCAUUUAGCGGAGUUAUCUUUGAAAAGACAUCAACAUCCCUGUGCAUUUGUCAGUCUGGUAGAGUGGAAUUCUCGGGUGCCAA | 0.413
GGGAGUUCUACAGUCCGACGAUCGGGAAGUGACGGUUCUUAGAGGAGAAAAGCAAAAGGCUUGGGAGAUCCACAUGGCCUGUCCCCGUGAAGGCCAAAAAGCAUUUUCUCUCCAACUCCUUCUGGGAAGGUUGUGGAAUUCUCGGGUGCCAA | 0.549
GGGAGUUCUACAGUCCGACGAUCCCUUCAAGAAAUGGACCCCUCCUCGGUCACCUUUUAAUCUUGUUCAAGAAAUACUUUUCCAUGACCCAUGGAAGCUCCUCAUCGCGACUAUAUUUCUCAAUCGGACCUCAUGGAAUUCUCGGGUGCCAA | 0.341
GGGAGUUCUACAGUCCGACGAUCUGCACUUUUGUGGGUCGCAAGGUGAUACAUACGUGUAUUACUUGGUCACUGGAUGCAGAAGUACCCAUUCAUCACACCUGCCCCAUAGCCCCCACUCUGCUGUACUGAUAUGGAAUUCUCGGGUGCCAA | 0.231

Further values, each from its own experiment
Substance | target | test | test system | conditions | how to read | quantity | value
PhoQ, residues 284 288 289 292 302 303 GASLAW | PhoP, residues 12 14 15 18 19 NMSFL (Escherichia coli, UniProt P23836) | Sort-seq, item: YFP reporter | E. coli | PhoQ-PhoP variant library, added: 10 µM Mg2+ | relative to: high Mg2+ state, higher = stronger signaling | fold induction | 12.8

Excerpt of the above (sample 3):
Oligonucleotide | RBNS enrichment (R)
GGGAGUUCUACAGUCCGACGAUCAAUGCCACCGUUUCCUCUAAGACUGGCCAUUAAUGUUUCGUCGGCGGAAGUCGCUCUCCUGGGAGGCAAUGAGCAUUGCCGUAUAGGUUCCUGUUUAUUAGAGAGUAUGCUGGAAUUCUCGGGUGCCAA | 0.408
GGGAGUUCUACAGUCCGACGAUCUUUAAAUAAUUAUUACAUUAUUCUAACUAUAGUCAUAUUAUUUUGGAUUUAAAUAAAUUUCUAUCCUAUAACAUUUUUUUGGAGCUUUUUGUUUUGUCUCUUAAGGUUGUUGGAAUUCUCGGGUGCCAA | 0.565
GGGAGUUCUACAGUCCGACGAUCCCUUCAAGAAAUGGACCCCUCCUCGGUCACCUUUUAAUCUUGUUCAAGAAAUACUUUUCCAUGACCCAUGGAAGCUCCUCAUCGCGACUAUAUUUCUCAAUCGGACCUCAUGGAAUUCUCGGGUGCCAA | 0.341
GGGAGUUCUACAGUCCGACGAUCCCUGCACUUCCUUUGCUUCCUCCUGUUCACCCUGGUGGUGUACGGAUGAGGCGGGGAGGUGGGACCCCCAAACAUAUAUCAGCCCAACAGCCCUAAGUCUCCUUCUUUAUUGGAAUUCUCGGGUGCCAA | 0.264
